Assay results pooled from the literature.
Numbers after ± are the reported error.
FURIN: Furin (FURIN, Homo sapiens, UniProt P09958)
CASP3: Caspase-3 (CASP3, Homo sapiens, UniProt P42574)

Chains of the proteins cited; added tags and fusions are not shown. Residues count along the entry.
UniProt P09958, whole entry, looked up: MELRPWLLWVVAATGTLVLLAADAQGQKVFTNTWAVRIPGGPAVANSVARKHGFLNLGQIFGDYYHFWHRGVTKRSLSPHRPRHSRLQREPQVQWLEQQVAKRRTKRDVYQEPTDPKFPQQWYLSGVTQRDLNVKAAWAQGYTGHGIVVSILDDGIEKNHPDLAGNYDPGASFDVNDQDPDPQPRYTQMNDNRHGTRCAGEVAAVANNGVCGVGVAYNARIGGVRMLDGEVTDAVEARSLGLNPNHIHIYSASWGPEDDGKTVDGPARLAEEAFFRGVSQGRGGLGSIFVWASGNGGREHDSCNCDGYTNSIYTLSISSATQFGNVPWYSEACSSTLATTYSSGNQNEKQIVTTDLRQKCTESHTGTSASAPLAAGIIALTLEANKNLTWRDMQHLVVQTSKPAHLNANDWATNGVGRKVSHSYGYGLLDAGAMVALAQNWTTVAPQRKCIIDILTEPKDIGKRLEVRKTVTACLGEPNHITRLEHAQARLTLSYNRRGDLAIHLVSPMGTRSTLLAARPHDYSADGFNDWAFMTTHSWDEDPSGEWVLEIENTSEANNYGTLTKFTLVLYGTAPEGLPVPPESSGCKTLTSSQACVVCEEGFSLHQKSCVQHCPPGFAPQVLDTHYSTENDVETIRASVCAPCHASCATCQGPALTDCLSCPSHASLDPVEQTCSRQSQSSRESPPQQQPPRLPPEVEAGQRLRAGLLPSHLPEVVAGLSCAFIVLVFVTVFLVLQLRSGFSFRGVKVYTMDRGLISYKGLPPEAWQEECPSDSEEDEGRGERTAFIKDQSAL
UniProt P09958, 108-715 limits assumed: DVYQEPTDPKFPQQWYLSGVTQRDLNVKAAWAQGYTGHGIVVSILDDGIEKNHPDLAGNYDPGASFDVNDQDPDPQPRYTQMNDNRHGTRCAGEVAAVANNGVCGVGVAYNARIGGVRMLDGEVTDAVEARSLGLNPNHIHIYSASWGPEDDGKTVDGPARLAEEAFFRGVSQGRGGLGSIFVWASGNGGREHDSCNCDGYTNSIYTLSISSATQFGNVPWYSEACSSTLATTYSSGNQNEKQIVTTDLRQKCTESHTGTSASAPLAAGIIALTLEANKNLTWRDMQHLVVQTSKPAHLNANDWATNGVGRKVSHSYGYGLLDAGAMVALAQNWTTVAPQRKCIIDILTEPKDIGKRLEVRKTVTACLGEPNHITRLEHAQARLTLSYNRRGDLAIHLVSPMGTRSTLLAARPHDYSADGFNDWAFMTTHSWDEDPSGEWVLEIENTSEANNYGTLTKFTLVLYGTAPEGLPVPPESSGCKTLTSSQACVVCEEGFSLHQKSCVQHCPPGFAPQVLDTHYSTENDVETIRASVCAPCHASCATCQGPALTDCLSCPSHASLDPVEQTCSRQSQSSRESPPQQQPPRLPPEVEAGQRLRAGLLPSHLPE
UniProt P42574, whole entry, looked up: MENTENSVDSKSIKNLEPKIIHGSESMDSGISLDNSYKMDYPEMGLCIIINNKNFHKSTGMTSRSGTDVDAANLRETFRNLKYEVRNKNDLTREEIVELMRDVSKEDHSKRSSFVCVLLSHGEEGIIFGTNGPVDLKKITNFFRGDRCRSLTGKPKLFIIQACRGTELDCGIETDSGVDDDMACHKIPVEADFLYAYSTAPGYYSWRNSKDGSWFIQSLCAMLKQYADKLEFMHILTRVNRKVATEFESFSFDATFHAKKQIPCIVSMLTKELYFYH
UniProt P37136, 32-614 limits assumed: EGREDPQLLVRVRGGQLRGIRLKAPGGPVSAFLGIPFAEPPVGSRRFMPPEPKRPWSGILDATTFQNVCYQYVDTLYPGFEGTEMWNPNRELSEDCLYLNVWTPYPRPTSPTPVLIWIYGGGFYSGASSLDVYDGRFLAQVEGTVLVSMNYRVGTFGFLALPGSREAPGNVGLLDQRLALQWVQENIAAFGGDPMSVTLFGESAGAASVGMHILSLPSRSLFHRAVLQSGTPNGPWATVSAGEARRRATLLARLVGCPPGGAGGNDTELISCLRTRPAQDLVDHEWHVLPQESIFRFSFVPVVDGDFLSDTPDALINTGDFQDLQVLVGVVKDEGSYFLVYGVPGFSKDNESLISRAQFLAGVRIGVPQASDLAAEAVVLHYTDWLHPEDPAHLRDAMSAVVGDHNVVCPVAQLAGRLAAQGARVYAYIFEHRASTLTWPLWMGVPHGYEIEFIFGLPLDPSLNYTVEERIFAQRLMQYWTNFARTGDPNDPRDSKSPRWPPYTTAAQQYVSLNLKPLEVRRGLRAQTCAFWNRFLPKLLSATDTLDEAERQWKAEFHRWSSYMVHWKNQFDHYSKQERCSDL
UniProt O55242, whole entry: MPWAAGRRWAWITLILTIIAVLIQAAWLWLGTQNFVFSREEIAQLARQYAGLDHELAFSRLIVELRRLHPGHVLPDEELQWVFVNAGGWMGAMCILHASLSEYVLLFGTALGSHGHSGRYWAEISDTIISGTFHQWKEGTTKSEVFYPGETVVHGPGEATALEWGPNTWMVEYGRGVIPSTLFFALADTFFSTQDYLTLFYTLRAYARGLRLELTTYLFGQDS
UniProt P14867, 28-456 limits assumed: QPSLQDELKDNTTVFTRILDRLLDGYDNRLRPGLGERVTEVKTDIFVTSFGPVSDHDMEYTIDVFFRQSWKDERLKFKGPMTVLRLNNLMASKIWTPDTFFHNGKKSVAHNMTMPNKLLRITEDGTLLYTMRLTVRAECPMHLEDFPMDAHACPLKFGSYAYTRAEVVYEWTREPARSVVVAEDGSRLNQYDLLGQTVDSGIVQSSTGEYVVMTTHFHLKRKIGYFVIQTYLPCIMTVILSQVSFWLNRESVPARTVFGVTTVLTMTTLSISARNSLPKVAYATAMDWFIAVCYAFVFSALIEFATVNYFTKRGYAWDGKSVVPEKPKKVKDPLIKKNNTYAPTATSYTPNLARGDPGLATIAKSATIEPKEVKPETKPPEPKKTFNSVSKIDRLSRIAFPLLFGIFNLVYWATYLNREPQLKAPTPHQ
UniProt P18507, 40-475 limits assumed: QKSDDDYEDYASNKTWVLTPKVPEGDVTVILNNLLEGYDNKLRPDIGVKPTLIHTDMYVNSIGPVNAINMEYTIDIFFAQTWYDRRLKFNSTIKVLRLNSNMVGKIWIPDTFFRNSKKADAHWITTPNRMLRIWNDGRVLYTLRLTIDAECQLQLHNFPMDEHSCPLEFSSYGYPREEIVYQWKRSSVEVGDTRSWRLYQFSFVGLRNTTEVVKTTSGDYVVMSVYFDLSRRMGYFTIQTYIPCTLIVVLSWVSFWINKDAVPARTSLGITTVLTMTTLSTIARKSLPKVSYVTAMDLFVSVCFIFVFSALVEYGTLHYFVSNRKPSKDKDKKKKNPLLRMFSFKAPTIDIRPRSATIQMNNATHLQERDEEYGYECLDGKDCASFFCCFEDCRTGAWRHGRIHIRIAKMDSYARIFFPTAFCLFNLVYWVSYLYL
UniProt P28472, 26-473 limits assumed: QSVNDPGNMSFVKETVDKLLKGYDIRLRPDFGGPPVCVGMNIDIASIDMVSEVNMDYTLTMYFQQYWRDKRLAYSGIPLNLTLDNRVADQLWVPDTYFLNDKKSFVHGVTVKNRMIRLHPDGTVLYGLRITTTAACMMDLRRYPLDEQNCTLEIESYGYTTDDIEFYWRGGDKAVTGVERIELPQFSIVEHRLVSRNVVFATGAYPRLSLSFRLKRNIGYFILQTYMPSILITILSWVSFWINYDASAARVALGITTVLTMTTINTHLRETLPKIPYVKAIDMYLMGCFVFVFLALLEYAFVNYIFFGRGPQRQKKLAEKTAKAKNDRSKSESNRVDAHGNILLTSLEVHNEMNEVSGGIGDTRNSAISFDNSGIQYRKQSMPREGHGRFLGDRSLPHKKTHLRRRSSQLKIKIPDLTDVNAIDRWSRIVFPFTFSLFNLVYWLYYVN
UniProt P02708, 21-457 limits assumed: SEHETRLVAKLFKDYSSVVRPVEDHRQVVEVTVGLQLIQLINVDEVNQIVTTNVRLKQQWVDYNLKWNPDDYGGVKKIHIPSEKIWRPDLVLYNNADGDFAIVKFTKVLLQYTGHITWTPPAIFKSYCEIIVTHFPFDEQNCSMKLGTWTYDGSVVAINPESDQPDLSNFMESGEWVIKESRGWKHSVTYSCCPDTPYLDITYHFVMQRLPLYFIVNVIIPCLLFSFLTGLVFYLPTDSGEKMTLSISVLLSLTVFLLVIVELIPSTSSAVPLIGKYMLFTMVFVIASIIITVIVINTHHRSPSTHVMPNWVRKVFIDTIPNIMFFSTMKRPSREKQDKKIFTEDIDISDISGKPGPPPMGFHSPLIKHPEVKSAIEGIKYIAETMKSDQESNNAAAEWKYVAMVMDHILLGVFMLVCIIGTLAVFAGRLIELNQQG
UniProt Q04844, 21-493 limits assumed: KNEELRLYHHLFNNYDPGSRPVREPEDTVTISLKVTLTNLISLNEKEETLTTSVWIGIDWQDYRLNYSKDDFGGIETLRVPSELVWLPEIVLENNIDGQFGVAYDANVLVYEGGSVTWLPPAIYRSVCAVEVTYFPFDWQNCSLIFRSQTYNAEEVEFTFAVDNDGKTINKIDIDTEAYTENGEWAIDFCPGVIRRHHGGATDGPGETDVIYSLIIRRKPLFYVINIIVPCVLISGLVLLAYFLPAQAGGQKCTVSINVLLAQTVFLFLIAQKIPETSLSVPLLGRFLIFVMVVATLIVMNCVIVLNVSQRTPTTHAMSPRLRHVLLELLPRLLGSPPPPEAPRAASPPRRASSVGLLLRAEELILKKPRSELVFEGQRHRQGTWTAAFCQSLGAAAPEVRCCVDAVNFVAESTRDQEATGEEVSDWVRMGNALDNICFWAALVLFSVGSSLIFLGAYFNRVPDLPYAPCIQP
UniProt Q07001, 22-517 limits assumed: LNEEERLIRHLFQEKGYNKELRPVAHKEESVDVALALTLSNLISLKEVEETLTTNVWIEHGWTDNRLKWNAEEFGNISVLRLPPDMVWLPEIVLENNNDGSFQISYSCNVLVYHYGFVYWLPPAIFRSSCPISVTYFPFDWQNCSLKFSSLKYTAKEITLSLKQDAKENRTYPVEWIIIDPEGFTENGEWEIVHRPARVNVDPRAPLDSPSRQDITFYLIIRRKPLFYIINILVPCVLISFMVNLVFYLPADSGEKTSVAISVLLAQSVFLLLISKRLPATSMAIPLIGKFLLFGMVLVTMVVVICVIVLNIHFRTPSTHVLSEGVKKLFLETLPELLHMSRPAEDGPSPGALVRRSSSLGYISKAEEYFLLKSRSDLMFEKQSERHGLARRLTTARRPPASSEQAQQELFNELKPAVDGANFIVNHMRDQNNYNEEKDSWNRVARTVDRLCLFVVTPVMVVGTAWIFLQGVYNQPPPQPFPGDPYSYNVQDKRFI

SMILES = CC[C@H](C)[C@H](NC(=O)[C@H](C)NC(=O)[C@H](CCCNC(=N)N)NC(=O)[C@H](CCCNC(=N)N)NC(=O)[C@H](CO)NC(=O)[C@H](CCCNC(=N)N)NC(=O)CNC(=O)[C@H](CO)NC(=O)c1ccccc1N)C(=O)N[C@@H](CC(=O)O)C(=O)N[C@@H](CC(C)C)C(=O)N[C@@H](CCC(N)=O)C(=O)NCCNc1ccc([N+](=O)[O-])cc1[N+](=O)[O-]; tested on = FURIN; test = substrate; conditions = pH 7; endpoint = Km; value = 0.39 µM
SMILES = CC(C)[C@H](NC(=O)[C@H](CO)NC(=O)[C@H](CC(=O)O)NC(=O)[C@H](CCC(N)=O)NC(=O)CCNC(=O)Cc1cc(=O)oc2cc(N)ccc12)C(=O)N[C@@H](CC(=O)O)C(=O)N[C@@H](Cc1ccccc1)C(=O)N[C@@H](CO)C(=O)N[C@@H](CC(N)=O)C(=O)N[C@@H](Cc1c[nH]cn1)C(=O)N[C@@H](CC(=O)O)C(=O)N[C@@H](CCCCNc1ccc([N+](=O)[O-])cc1[N+](=O)[O-])C(N)=O; tested on = CASP3; test = substrate; conditions = pH 7.2; endpoint = Km; value = 13.3 µM
SMILES = COP(=O)(OC)Oc1ccc([N+](=O)[O-])cc1Cl; tested on = Acetylcholinesterase (Ache, Rattus norvegicus, UniProt P37136); test = enzyme activity, inhibitor, discontinuous Ellman; test system = rat, postnatal day 12, rat skeletal muscle homogenate; conditions = 15 min, 37 °C; endpoint = IC50; value = 64 nM
SMILES = CC(C)C[C@H](NC(=O)CNC(=O)[C@H](CCCNC(=N)N)NC(=O)[C@H](CCCCN)NC(=O)[C@H](CCCCN)NC(=O)[C@H](CCCNC(=N)N)NC(=O)[C@H](CCCNC(=N)N)NC(=O)[C@H](CCCNC(=N)N)NC(=O)[C@H](CCC(=O)O)NC(=O)[C@H](CCCNC(=N)N)NC(=O)c1ccccc1N)C(=O)N[C@@H](Cc1ccccc1)C(=O)NCC(=O)N[C@@H](CCC(N)=O)C(=O)NCCNc1ccc([N+](=O)[O-])cc1[N+](=O)[O-]; tested on = FURIN; test = substrate; conditions = pH 7; endpoint = Km; value = 0.1 µM
SMILES = COC(=O)[C@H]1[C@@H](OC(=O)c2ccccc2)C[C@@H]2CC[C@H]1N2C; tested on = Sigma non-opioid intracellular receptor 1 (Sigmar1, Mus musculus, UniProt O55242); test = radioligand binding, displacement; test system = CD-1 mouse, whole brain; conditions = intraperitoneal, 100 µmol/kg, 30 min after radioligand; endpoint = inhibition; value = 37%
SMILES = CC(C)C[C@H](NC(=O)[C@H](Cc1ccccc1)NC(=O)CNC(=O)CNC(=O)[C@@H](N)Cc1ccc(O)cc1)C(=O)O; tested on = neuron-specific aminopeptidase, rat; test = substrate; conditions = MW 110 kDa; endpoint = kcat; value = 3.24 s⁻¹
SMILES = N#Cc1c(-c2ccc(Cl)cc2Cl)n(-c2nc(-c3ccc(Cl)cc3)c3c(NC(=O)c4ccccc4)nnc-3[nH]2)[nH]c1=O; tested on = SK-MEL-28; test = SRB; endpoint = CC50; value = > 100000 nM
SMILES = CC(C)C[C@H](NC(=O)[C@H](CO)NC(=O)[C@H](CCCNC(=N)N)NC(=O)[C@H](CCCCN)NC(=O)[C@H](CCCCN)NC(=O)[C@H](CCCNC(=N)N)NC(=O)[C@H](CCCNC(=N)N)NC(=O)[C@H](CCCNC(=N)N)NC(=O)c1ccccc1N)C(=O)N[C@@H](Cc1ccccc1)C(=O)NCC(=O)N[C@@H](CCC(N)=O)C(=O)NCCNc1ccc([N+](=O)[O-])cc1[N+](=O)[O-]; tested on = FURIN; test = substrate; conditions = pH 7.0, 37 °C, with: KCl 20 mM; endpoint = Km; value = 0.95 µM
SMILES = CCOC(=O)c1cncn1C(C)c1cc(OC)cc(OC)c1 (stereo not shown); tested on = GABA-A receptor; alpha-1/beta-3/gamma-2 (Homo sapiens, UniProt P14867+P18507+P28472); test = GABA current potentiation, positive allosteric modulator, two-electrode voltage clamp; test system = Xenopus oocytes; conditions = with: EC5 GABA; how to read = reference: 1 mM GABA response; endpoint = maximal current; value = 11%
SMILES = CC(C)C[C@H](NC(=O)CNC(=O)[C@H](CCCNC(=N)N)NC(=O)[C@H](CCCCN)NC(=O)[C@H](CCCCN)NC(=O)[C@H](CCCNC(=N)N)NC(=O)[C@H](CCCNC(=N)N)NC(=O)[C@H](CCCNC(=N)N)NC(=O)c1ccccc1N)C(=O)N[C@@H](CO)C(=O)NCC(=O)N[C@@H](CCC(N)=O)C(=O)NCCNc1ccc([N+](=O)[O-])cc1[N+](=O)[O-]; tested on = FURIN; test = substrate; conditions = pH 7.0, 37 °C, with: KCl 20 mM; endpoint = Km; value = 1 µM
SMILES = CC[C@H](C)[C@@H]1NC(=O)[C@H](CCC(=O)O)NC(=O)[C@@H]2CCCN2C(=O)[C@H](Cc2c[nH]cn2)NC(=O)[C@H](CCCNC(=N)N)NC(=O)[C@H](C(C)C)NC(=O)[C@H](CC(N)=O)NC(=O)[C@@H]2CSSC[C@H](NC(=O)CN)C(=O)N[C@@H](CSSC[C@@H](C(N)=O)NC1=O)C(=O)N[C@@H](CO)C(=O)N[C@@H](Cc1c[nH]cn1)C(=O)N1CCC[C@H]1C(=O)N[C@@H](C(C)C)C(=O)N2; tested on = CHRNA1/Acetylcholine receptor subunit epsilon/Acetylcholine receptor subunit delta, with beta1 subunit (Homo sapiens, UniProt P02708+Q04844+Q07001); test = ion current, antagonist; conditions = 10 µM; how to read = reference: untreated control; endpoint = remaining ACh response; value = 93 ± 10%
SMILES = CC[C@H](C)[C@H](NC(=O)[C@H](C)NC(=O)[C@H](CCCNC(=N)N)NC(=O)[C@H](CCCNC(=N)N)NC(=O)[C@H](CO)NC(=O)[C@H](CCCNC(=N)N)NC(=O)CNC(=O)[C@H](CO)NC(=O)c1ccccc1N)C(=O)N[C@@H](CC(=O)O)C(=O)N[C@@H](CC(C)C)C(=O)N[C@@H](CCC(N)=O)C(=O)NCCNc1ccc([N+](=O)[O-])cc1[N+](=O)[O-]; tested on = FURIN; test = substrate; conditions = pH 7; endpoint = kcat; value = 4.7 s⁻¹
SMILES = CC(C)[C@H](NC(=O)[C@H](CO)NC(=O)[C@H](CC(=O)O)NC(=O)[C@H](CCC(N)=O)NC(=O)CCNC(=O)Cc1cc(=O)oc2cc(N)ccc12)C(=O)N[C@@H](CC(=O)O)C(=O)N[C@@H](Cc1ccccc1)C(=O)N[C@@H](COP(=O)(O)O)C(=O)N[C@@H](CC(N)=O)C(=O)N[C@@H](Cc1c[nH]cn1)C(=O)N[C@@H](CC(=O)O)C(=O)N[C@@H](CCCCNc1ccc([N+](=O)[O-])cc1[N+](=O)[O-])C(N)=O; tested on = CASP3; test = substrate; conditions = pH 7.2; endpoint = Km; value = 16.4 µM

Some of these lines once more:
SMILES = CC(C)C[C@H](NC(=O)[C@H](Cc1ccccc1)NC(=O)CNC(=O)CNC(=O)[C@@H](N)Cc1ccc(O)cc1)C(=O)O; tested on = neuron-specific aminopeptidase, rat; test = substrate; conditions = MW 110 kDa; endpoint = kcat; value = 3.24 s⁻¹
